# Published values pooled from the literature.
# Each line is one published result; not all experiments were run side by side.
# Method: steady-state kinetics
# B1: protein (Triticum aestivum, UniProt G9M5S8); chain AGVATVAPLPLPASPQIQCFPTSSTNIHHQLSMLDVLEKIGISRHFAGEIKSVLDFTYSRWLQRDEEIMLDTGTCAMAFRILRMNGYDVSSDSLSHLTEASVHLNDTRSLLELYKVSQVSTSKHELILDSIGSWSGRLLKEQLRSSKAQKLTPLLREVEHALDSPFYTTLDRLEHKMNIEQFDFMEHQMLYLPWQRNQDLLALGVMDFNTSQIVCQQELQHLESWVKDSRLDQLPFARQKLAYFYLSAAGTMLPGELSDARILWAKNGALTTVVDDFFDVGGSKKELENLTTLVEMWDKHEEIQYYSEHVEIVFSAIYNSVNQLGAKASAVQGRNVTKHFVDIWQDLIRNMMTEVEWRETGYIPTPEEYMENAVVTFALGPIVLPALYFIGPKITEYTVRDTEYNELFRLMSTCGRLLNDVQTYEREYIDGKINSVSLLVHHSDGSMTIPEARKELQEPIDTCRRDLLRLVLKEDSVMPRLCKELFWKMCKTCYFFYYQGDAFSSPEEKVGAVDAVIHEPLQLPLDLRPGLDLSYLHERKND
# B2: DCXR (Homo sapiens, UniProt Q7Z4W1); chain MELFLAGRRVLVTGAGKGIGRGTVQALHATGARVVAVSRTQADLDSLVRECPGIEPVCVDLGDWEATERALGSVGPVDLLVNNAAVALLQPFLEVTKEAFDRSFEVNLRAVIQVSQIVARGLIARGVPGAIVNVSSQCSQRAVTNHSVYCSTKGALDMLTKVMALELGPHKIRVNAVNPTVVMTSMGQATWSDPHKAKTMLNRIPLGKFAEVEHVVNAILFLLSDRSGMTTGSTLPVEGGFWAC
# B3: asnB E349Q (Escherichia coli, UniProt P22106); chain CSIFGVFDIKTDAVELRKKALELSRLMRHRGPDWSGIYASDNAILAHERLSIVDVNAGAQPLYNQQKTHVLAVNGEIYNHQALRAEYGDRYQFQTGSDCEVILALYQEKGPEFLDDLQGMFAFALYDSEKDAYLIGRDHLGIIPLYMGYDEHGQLYVASEMKALVPVCRTIKEFPAGSYLWSQDGEIRSYYHRDWFDYDAVKDNVTDKNELRQALEDSVKSHLMSDVPYGVLLSGGLDSSIISAITKKYAARRVEDQERSEAWWPQLHSFAVGLPGSPDLKAAQEVANHLGTVHHEIHFTVQEGLDAIRDVIYHIETYDVTTIRASTPMYLMSRKIKAMGIKMVLSGQGSDEVFGGYLYFHKAPNAKELHEETVRKLLALHMYDCARANKAMSAWGVEARVPFLDKKFLDVAMRINPQDKMCGNGKMEKHILRECFEAYLPASVAWRQKEQFSDGVGYSWIDTLKEVAAQQVSDQQLETARFRFPYNTPTSKEAYLYREIFEELFPLPSAAECVPGGPSVACSSAKAIEWDEAFKKMDDPSGRAVGVHQSAYK
# B4: UGT1A9 (Homo sapiens, UniProt O60656); chain GKLLVVPMDGSHWFTMRSVVEKLILRGHEVVVVMPEVSWQLGRSLNCTVKTYSTSYTLEDLDREFKAFAHAQWKAQVRSIYSLLMGSYNDIFDLFFSNCRSLFKDKKLVEYLKESSFDAVFLDPFDNCGLIVAKYFSLPSVVFARGILCHYLEEGAQCPAPLSYVPRILLGFSDAMTFKERVRNHIMHLEEHLLCHRFFKNALEIASEILQTPVTEYDLYSHTSIWLLRTDFVLDYPKPVMPNMIFIGGINCHQGKPLPMEFEAYINASGEHGIVVFSLGSMVSEIPEKKAMAIADALGKIPQTVLWRYTGTRPSNLANNTILVKWLPQNDLLGHPMTRAFITHAGSHGVYESICNGVPMVMMPLFGDQMDNAKRMETKGAGVTLNVLEMTSEDLENALKAVINDKSYKENIMRLSSLHKDRPVEPLDLAVFWVEFVMRHKGAPHLRPAAHDLTWYQYHSLDVIGFLLAVVLTVAFITFKCCAYGYRKCLGKKGRVKKAHKSKTH
# B5: KS T527V/T528V (Arabidopsis thaliana, UniProt Q9SAK2); chain ANNVSFEQTKEKIRKMLEKVELSVSAYDTSWVAMVPSPSSQNAPLFPQCVKWLLDNQHEDGSWGLDNHDHQSLKKDVLSSTLASILALKKWGIGERQINKGLQFIELNSALVTDETIQKPTGFDIIFPGMIKYARDLNLTIPLGSEVVDDMIRKRDLDLKCDSEKFSKGREAYLAYVLEGTRNLKDWDLIVKYQRKNGSLFDSPATTAAAFTQFGNDGCLRYLCSLLQKFEAAVPSVYPFDQYARLSIIVTLESLGIDRDFKTEIKSILDETYRYWLRGDEEICLDLATCALAFRLLLAHGYDVSYDPLKPFAEESGFSDTLEGYVKNTFSVLELFKAAQSYPHESALKKQCCWTKQYLEMELSSWVKTSVRDKYLKKEVEDALAFPSYASLERSDHRRKILNGSAVENTRVTKTSYRLHNICTSDILKLAVDDFNFCQSIHREEMERLDRWIVENRLQELKFARQKLAYCYFSGAATLFSPELSDARISWAKGGVLVVVVDDFFDVGGSKEELENLIHLVEKWDLNGVPEYSSEHVEIIFSVLRDTILETGDKAFTYQGRNVTHHIVKIWLDLLKSMLREAEWSSDKSTPSLEDYMENAYISFALGPIVLPATYLIGPPLPEKTVDSHQYNQLYKLVSTMGRLLNDIQGFKRESAEGKLNAVSLHMKHERDNRSKEVIIESMKGLAERKREELHKLVLEEKGSVVPRECKEAFLKMSKVLNLFYRKDDGFTSNDLMSLVKSVIYEPVSLQEESLT
# B6: protein (Amanita muscaria, UniProt A0A650FNW1); chain MSTKPETDLQTVLDSEIKEWHFHIYFHQNNAAEHQAALELRDAVLRLRQDGAFVAVPLFRVNMDPMGPHPVGSYEIWVPSETFASVFSYLCMNRGRLSILVHPLTREELRDHEIRNAWIGPSFPLNLANLPIKSDEIPLQYPSLKLGYSSTAHKMSLEERRKLGDDIEAVLRGEKEAARAPHRDA
# B7: MauG (Paracoccus denitrificans, UniProt Q51658); chain EQARPADDALAALGAQLFVDPALSRNATQSCATCHDPARAFTDPREGKAGLAVSVGDDGQSHGDRNTPTLGYAALVPAFHRDANGKYKGGQFWDGRADDLKQQAGQPMLNPVEMAMPDRAAVAARLRDDPAYRTGFEALFGKGVLDDPERAFDAAAEALAAYQATGEFSPFDSKYDRVMRGEEKFTPLEEFGYTVFITWNCRLCHMQRKQGVAERETFTNFEYHNIGLPVNETAREASGLGADHVDHGLLARPGIEDPAQSGRFKVPSLRNVAVTGPYMHNGVFTDLRTAILFYNKYTSRRPEAKINPETGAPWGEPEVARNLSLAELQSGLMLDDGRVDALVAFLETLTDRRYEPLLEESRAAQKD
# B8: carbamoyl phosphate synthetase large subunit A23F (Escherichia coli, UniProt P00968); chain PKRTDIKSILILGAGPIVIGQFCEFDYSGAQACKALREEGYRVILVNSNPATIMTDPEMADATYIEPIHWEVVRKIIEKERPDAVLPTMGGQTALNCALELERQGVLEEFGVTMIGATADAIDKAEDRRRFDVAMKKIGLETARSGIAHTMEEALAVAADVGFPCIIRPSFTMGGSGGGIAYNREEFEEICARGLDLSPTKELLIDESLIGWKEYEMEVVRDKNDNCIIVCSIENFDAMGIHTGDSITVAPAQTLTDKEYQIMRNASMAVLREIGVETGGSNVQFAVNPKNGRLIVIEMNPRVSRSSALASKATGFPIAKVAAKLAVGYTLDELMNDITGGRTPASFEPSIDYVVTKIPRFNFEKFAGANDRLTTQMKSVGEVMAIGRTQQESLQKALRGLEVGATGFDPKVSLDDPEALTKIRRELKDAGADRIWYIADAFRAGLSVDGVFNLTNIDRWFLVQIEELVRLEEKVAEVGITGLNADFLRQLKRKGFADARLAKLAGVREAEIRKLRDQYDLHPVYKRVDTCAAEFATDTAYMYSTYEEECEANPSTDREKIMVLGGGPNRIGQGIEFDYCCVHASLALREDGYETIMVNCNPETVSTDYDTSDRLYFEPVTLEDVLEIVRIEKPKGVIVQYGGQTPLKLARALEAAGVPVIGTSPDAIDRAEDRERFQHAVERLKLKQPANATVTAIEMAVEKAKEIGYPLVVRPSYVLGGRAMEIVYDEADLRRYFQTAVSVSNDAPVLLDHFLDDAVEVDVDAICDGEMVLIGGIMEHIEQAGVHSGDSACSLPAYTLSQEIQDVMRQQVQKLAFELQVRGLMNVQFAVKNNEVYLIEVNPRAARTVPFVSKATGVPLAKVAARVMAGKSLAEQGVTKEVIPPYYSVKEVVLPFNKFPGVDPLLGPEMRSTGEVMGVGRTFAEAFAKAQLGSNSTMKKHGRALLSVREGDKERVVDLAAKLLKQGFELDATHGTAIVLGEAGINPRLVNKVHEGRPHIQDRIKNGEYTYIINTTSGRRAIEDSRVIRRSALQYKVHYDTTLNGGFATAMALNADATEKVISVQEMHAQIK
# B9: BaiA1 (Clostridium scindens, UniProt P07914); chain MKLVQDKITIITGGTRGIGFAAAKLFIENGAKVSIFGETQEEVDTALAQLKELYPEEEVLGFAPDLTSRDAVMAAVGTVAQKYGRLDVMINNAGITMNSVFSRVSEEDFKNIMDINVNGVFNGAWSAYQCMKDAKQGVIINTASVTGIYGSLSGIGYPTSKAGVIGLTHGLGREIIRKNIRVVGVAPGVVDTDMTKGLPPEILEDYLKTLPMKRMLKPEEIANVYLFLASDLASGITATTISVDGAYRP
# B10: CstB (Staphylococcus aureus, UniProt G5ELA4); chain MFFKQFYDNHLSQASYLVGCQRTGEAIIIDPVRDLSKYIEVADSEGLTITQATETHIHADFASGIRDVAKRLNANIYVSGEGEDALGYKNMPSKTQFVKHGDIIQVGNVKLEVLHTPGHTPESISFLLTDLGGGSSVPMGLFSGDFIFVGDIGRPDLLEKSVQIKGSTEISAKQMYESVQNIKNLPDYVQIWPGHGAGSPCGKALGAIPISTIGYEKINNWAFNEIDETKFIESLTSNQPAPPHHFAQMKQVNQFGMNLYQSYDVYPSLDNKRVAFDLRSKEAFHGGHTKGTINIPYNKNFINQIGWYLDFEKDIDLIGDKSTVEKAKHTLQLIGFDKVAGYRLPKSGISTQSVHSADMTGKEEHVLDVRNDEEWNNGHLDQAVNIPHGKLLNENIPFNKEDKIYVHCQSGVRSSIAVGILESKGFENVVNIREGYQDFPESLK
Substance,substrate,pH,temperature,notes,with,Km [µM]
B1 (protein),CC(C)=CCC/C(C)=C/CC/C(C)=C/CO[P@@](=O)(O)OP(=O)(O)O,,30 °C,,,1.7
"protein (Candidatus Protochlamydia amoebophila, UniProt A0A2P9HA01)",Nc1nc2c(ncn2[C@@H]2O[C@H](COP(=O)(O)OP(=O)(O)OP(=O)(O)O)[C@@H](O)[C@H]2O)c(=O)[nH]1,pH 7,30 °C,"transporter, labelled substrate, apparent, not purified",,22
B2 (DCXR),CC(=O)C(C)=O,pH 7,,,NADPH 200 µM,170
B3 (asnB E349Q),NC(=O)CC[C@H](N)C(=O)O,pH 8,37 °C,"100 mM NaCl, glutaminase site",MgCl2; no ATP,9000
B4 (UGT1A9),O=C(/C=C/c1ccccc1O)c1ccccc1,pH 7.4,37 °C,,,0.23
B5 (KS T527V/T528V),C=C1CC[C@@H]2C(C)(C)CCC[C@@]2(C)[C@@H]1CC/C(C)=C/COP(=O)(O)OP(=O)(O)O,pH 7.2,30 °C,GGPP-derived substrate,,1.5
B6 (protein),N[C@@H](Cc1ccc(O)c(O)c1)C(=O)O,pH 8.5,25 °C,ascorbic acid 10 mM,O2,4200
"enzyme (Daphnia magna, UniProt A0A0A7CK57)",N=C(N)NCCC[C@H](N)C(=O)O,pH 8.5,,,,900
B7 (MauG),O=C1O[C@H]([C@@H](O)CO)C(O)=C1O,pH 7.5,25 °C,,H2O2 100 µM,2.2
B8,Nc1ncnc2c1ncn2[C@@H]1O[C@H](COP(=O)(O)OP(=O)(O)OP(=O)(O)O)[C@@H](O)[C@H]1O,pH 7.6,,KCl 100 mM,"glutamine 10 mM, ornithine 10 mM",1600
enzyme (UniProt A0A7J5BGR1),C=CCc1ccc(O)c(OC)c1,pH 8,25 °C,,,9.5
B9 (BaiA1),C[C@H](CCC(=O)SCCNC(=O)CCNC(=O)[C@H](O)C(C)(C)COP(=O)(O)OP(=O)(O)OC[C@H]1O[C@@H](n2cnc3c(N)ncnc32)[C@H](O)[C@@H]1OP(=O)(O)O)[C@H]1CC[C@H]2[C@@H]3[C@H](O)C[C@@H]4CC(=O)CC[C@]4(C)[C@H]3CC[C@]12C,pH 8.7,37 °C,,NADH,3.3
B10 (CstB),O=S(O)(O)=S,pH 6,25 °C,,KCN 50 mM,1700
